Measured values pooled from the literature.
A part holds a random share of what one study measured.

Block 1
Target: RNA binding protein fox-1 homolog 2, RRM domain, GST-SBP tag (RBFOX2, Homo sapiens, UniProt O43251-10, residues 100-194)
Method: RNA Bind-n-Seq
Form: RNA
Matrix: in vitro
Concentration: 365 nM
Setting: natural RNA segment, single round, ends assumed
Relative to: no-protein control
Reading: higher = stronger binding
Target sequence (chain): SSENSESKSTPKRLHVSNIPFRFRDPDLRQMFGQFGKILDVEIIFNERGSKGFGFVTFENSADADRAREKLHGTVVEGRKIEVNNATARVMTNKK
Sequence	RBNS enrichment (R)
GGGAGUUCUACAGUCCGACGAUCAUAAGUAUUUGCUCUUAAAAUUUACUACUUAGUAGCAUGAUUAUUUUUGUUCUGUUGAUGAAGCAAAUUUGACAGAAUAUUAUUUCUCCAUAUCACACAUAUCUACACUAUGGAAUUCUCGGGUGCCAA	0.704
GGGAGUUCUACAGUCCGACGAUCCACUUGGCGACCCUUCUGGUCUUGCUGGAGGGGUUUCCUGGGUAUAACCCAUUGGGCUGCCCAAGGCCAGCCAGCCUGAGCUCUCCUGCAAGACAGAGCCUGAUGUGGCAUGGAAUUCUCGGGUGCCAA	0.64
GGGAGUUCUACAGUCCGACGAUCCGAGCUCAUCAUGAGAUGCCAACGCCCGUGGUCGAUUUAUAUAUAUUUUUUUGUAAUUAUUAUAUUCUAGUUUGGAGUACUUGCUGUAGGAUUCAAGCUGUCUUUGCACUUGGAAUUCUCGGGUGCCAA	0.609
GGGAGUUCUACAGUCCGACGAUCAUCGGGUGCGGAUUGGUGCUAAUUUAAACAAAAGGGCCUCUGGGGUCUUUUGUUCAAUAUUUUACAAUUUAGACUUCUGUCCAACACUAAUUUAUUUUGUCUUGAGUUGUUGGAAUUCUCGGGUGCCAA	0.799
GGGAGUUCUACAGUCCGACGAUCUGCUUGUUGAGUUGUUUUGGCAUUCAUAUUAAAAGCCAGCAUCUCACUAUUUAUUGACAGGUUGGGCUGUGUGUGUGCGCAUGUGUGUAUACAUUUCCAGGCGUGCCUGUUGGAAUUCUCGGGUGCCAA	0.77
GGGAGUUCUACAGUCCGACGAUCUUUCCCAAGAGCAUGAUAGAAAGAUCCCUGGACUCUGCUGUUACAAGCGUGGACUCUUGUCUCACCUCAUCAAUUAUUCUGUGAUGUUGAAUCAGGAUUCUAAAGGCUAGUGGAAUUCUCGGGUGCCAA	43.7
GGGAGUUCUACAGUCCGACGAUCAAAGAACAGUUCACAUGAACAAAAAAGAGAAAAACAAACAAACCACAAAACCCACAACCCAGCACAAAGUCGACAAUGGAUUUUGUUUCUUUGAUUUAUUUUGCCAAUGGUGGAAUUCUCGGGUGCCAA	0.635
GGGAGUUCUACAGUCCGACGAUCGUUCUGCUGCCCCUGAUGCUCAUGGGUCUGUCCCGGGGAAAGAGGCAAGCAGGAGGCUGAGCCAGGAGCGAGGGGUAGAAAGUGGUGGUGUGGAACAGGCUUCUGUUUGUUGGAAUUCUCGGGUGCCAA	0.913
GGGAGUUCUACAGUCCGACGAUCCAUGGGGAUUAAAGCUAUGGUUAUAUUAGCACCAAACUUCUACAAACCAAGCUCAGGGCCCCAACCCUAGAAGGGCCCAAAUGAGAGAAUGGUACUUAGGGAUGGAAAACUGGAAUUCUCGGGUGCCAA	0.273
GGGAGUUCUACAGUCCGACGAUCUGGUGACCACCUAUGCUUCAGUGCAUUUUCUAAACAAUUUCUCAAACUGAUCUGCUCCCGGGUGCUUUCUUACCACCAUCUCUGGUGACUUAGCCUCAAAUUGGUGUUUUUGGAAUUCUCGGGUGCCAA	0.411
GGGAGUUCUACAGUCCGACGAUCAGAUUUUGUGUAGGAAAUGUGCAUAGAGUUUGUAUUUUAUUUUUAUUAGCAGCUGAAAUGCCUUUGGUUUUGGCUUCUCUCUCUCCCUCUCUCUCUCUGUCUCUCCUUCUUGGAAUUCUCGGGUGCCAA	0.843
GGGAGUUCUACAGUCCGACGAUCACCAACCUUACAACCACAAGGGGGAAGCAGAGAGUCAAGCAUGCAGACAGGCAGCUUUCCCAGCUGGUUAAAGAAGCUGGGCCCUUUUCCUCCCACACCCUGCCAGCCUUUGGAAUUCUCGGGUGCCAA	26.7

Block 2
Target: Histone acetyltransferase KAT6A, both winged helices, GST fusion (KAT6A, Homo sapiens, UniProt Q92794, residues 1-181)
Method: protein binding microarray
Form: double-stranded DNA, one strand shown
Matrix: in vitro
Concentration: not given
Setting: 8-mer, flanks averaged, mean of 2 arrays, mostly near background
Relative to: not given
Reading: higher = stronger binding
Residues (chain): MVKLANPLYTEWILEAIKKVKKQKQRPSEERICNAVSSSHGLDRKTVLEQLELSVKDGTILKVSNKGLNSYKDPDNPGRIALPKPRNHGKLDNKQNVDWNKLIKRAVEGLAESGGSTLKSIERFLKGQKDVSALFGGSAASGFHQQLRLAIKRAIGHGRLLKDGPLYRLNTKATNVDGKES
Sequence	E-score
GTTTTCAA	0.0241
CCTAGCTA	-0.222
GCGACAGA	0.135
AGACATAG	-0.0611
TCTAGACA	-0.00839
AGTGCGCC	0.23
CATTCTCG	-0.0212
ACTTCACC	0.0948
CGAGCATC	-0.0292
CTGCTCAA	-0.162
CCAAACGG	0.152
CAGACCTC	0.0012
ACCGATGC	0.13
AACAAACC	-0.0104
GGAATACC	0.11
CAACGGTC	0.0813
AGCTCGAC	-0.0955
CGACATAA	0.0816
CTCAGGTC	0.0497
AGTTCCAA	-0.0862
AATGTTAA	-0.0272
GATGTTCC	0.018
AAAATGAC	-0.0459
ACGTAGCA	-0.00439
AGTCGCCA	-0.164

Block 3
Target: UBE2Q1 UBC core domain (UniProt Q7Z7E8)
Method: yeast two-hybrid
Matrix: yeast
Setting: mostly zero background
Relative to: not given
Reading: higher = stronger interaction
B1: TRIM38 RING domain (UniProt O00635); chain STKKMMEEATCSICLSLMTNPVSINCGHSYCHLCITDFFKNPSQKQLRQETFCCPQCRAPFHMDSLRP
B2: TRIM55 RING domain (UniProt Q9BYV6); chain TMDNLEKQLICPICLEMFTKPVVILPCQHNLCRKCASDIFQASNPYLPTRGGTTMASGGRFRCPSCRHEVVLDRHG
B3: RNF43 RING domain (UniProt Q68DV7); chain SGSSCSSAPVCAICLEEFSEGQELRVISCLHEFHRNCVDPWLHQHRTCPLCMFNITEGDSFS
B4: NSMCE1 RING domain (UniProt Q8WV22); chain RETYPDAVKICNICHSLLIQGQSCETCGIRMHLPCVAKYFQSNAEPRCPHCNDYWPHEIPKV
B5: RFPL2 RING domain (UniProt O75678); chain MAALFQEASSCPVCSDYLEKPMSLECGCAVCLKCINSLQKEPHGEDLLCCCSSMVSRKNKIRR
B6: RNF112 RING domain (UniProt Q9ULX5); chain QPMAPRELPTCSICLERLRDPISLDCGHDFCIRCFSTHRLPGCEPPCCPECRKICKQKRGLR
B7: RNF175 RING domain (UniProt Q8N4F7); chain LPTRSLSDNICAVCGQKIIVELDEEGLIENTYQLSCNHVFHEFCIRGWCIVGKKQTCPYCKEKVDLKRMIS
B8: RNF4 RING domain (UniProt P78317); chain TGLRPSGTVSCPICMDGYSEIVQNGRLIVSTECGHVFCSQCLRDSLKNANTCPTCRKKINHKRYHP
Residues (chain): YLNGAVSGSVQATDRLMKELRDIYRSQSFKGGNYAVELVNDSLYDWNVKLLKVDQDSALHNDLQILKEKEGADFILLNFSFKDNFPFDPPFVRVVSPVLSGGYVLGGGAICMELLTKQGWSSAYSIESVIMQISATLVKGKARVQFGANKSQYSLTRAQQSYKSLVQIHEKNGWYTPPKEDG
Molecule	lacZ reporter activity
B1 (TRIM38 RING domain)	0
B2 (TRIM55 RING domain)	0
KRQCSDVDDICSICQAEFQKPILLICQHIFCEECMTLWFNREKTCPLCRTVISDHINKW (RNFT1 RING domain (UniProt Q5M7Z0))	0
B3 (RNF43 RING domain)	0
KIKDLNEHIVCCLCAGYFVDATTITECLHTFCKSCIVKYLQTSKYCPMCNIKIHETQPLL (PCGF1 RING domain (UniProt Q9BSM1))	0
B4 (NSMCE1 RING domain)	0
B5 (RFPL2 RING domain)	0
B6 (RNF112 RING domain)	0
B7 (RNF175 RING domain)	0
QLQDEEDDSLCRICMDAVIDCVLLECGHMVTCTKCGKRMSECPICRQYVVRAVHVF (RNF34 RING domain (UniProt Q969K3))	0
B8 (RNF4 RING domain)	0

Block 4
Target: Fragile X messenger ribonucleoprotein 1, C-terminal low-complexity region (Fmr1, Mus musculus, UniProt P35922)
Method: RNA Bind-n-Seq
Form: RNA
Matrix: in vitro
Concentration: 200 nM
Setting: whole 134-nt RNA, ends assumed
With: 150 mM KCl
Relative to: input library
Reading: higher = stronger binding
Sequence	log2 enrichment
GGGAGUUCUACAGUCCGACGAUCCACAGACAACACGCACCCACACAGACAUAGAGGGAAGGGGUUGGGAUGGGGACAGGGUGCACAGCAGGGCGGGGUAGGACCCCAGCCCCUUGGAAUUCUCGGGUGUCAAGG	1.2
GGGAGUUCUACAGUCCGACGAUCCACAGACAACACGCACCCACACAGACACAGAAAAAAGGGGUUGGGAUGGGGACAGGGUGCACAGCAGGGCGGGGUAGGACCCCAGCCCCUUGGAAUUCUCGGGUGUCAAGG	1.22
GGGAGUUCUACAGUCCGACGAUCCACAGACAACACGCACCCACACAGACACAGAGGGAAGGGGUUGGGAUGGGGACAGGGUGCACAGCAGGGCGGGGUAGGACCCCAGCAAAUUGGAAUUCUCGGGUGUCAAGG	1.14
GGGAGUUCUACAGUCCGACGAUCAGUCCUGUGCUACACAUCGUAUGUACCGAAUCGGGAAAAAGGGAAAAAGGAAAAAGGAAAGUAUUAUGUUACGCCGUUCGGAUCUGCACUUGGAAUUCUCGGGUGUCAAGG	-0.669
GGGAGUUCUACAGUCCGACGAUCUCCUCAAGUCCUGUGCUACACAUCGUAUGUACCGAAUCGGUGGGUGGUGGGGAAAGUAUUAUGUUACGCCGUUCGGAUCUGCACUUCCAGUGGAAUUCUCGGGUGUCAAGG	0.522
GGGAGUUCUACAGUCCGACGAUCUCCUGUGCUACACAUCGUAUGUACCGAAUCGGGAAAAAAGGGAAAAAAGGAAAAAAGGGAAAGUAUUAUGUUACGCCGUUCGGAUCUGCAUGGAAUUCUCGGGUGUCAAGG	-0.116
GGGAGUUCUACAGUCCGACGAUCGUCCUGUGCUACACAUCGUAUGUACCGAAUCGGAAAAAAGGAAAAAAGGAAAAAAGGGAAAGUAUUAUGUUACGCCGUUCGGAUCUGCACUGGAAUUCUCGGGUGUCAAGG	-0.747
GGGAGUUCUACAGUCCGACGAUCAAGUCCUGUGCUACACAUCGUAUGUACCGAAUCGGUUUUUUUGGAAAAAGGUUUGGAAAGUAUUAUGUUACGCCGUUCGGAUCUGCACUUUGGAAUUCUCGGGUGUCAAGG	-1.38
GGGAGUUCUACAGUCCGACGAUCGUCCUGUGCUACACAUCGUAUGUACCGAAUCGGGGUUUGGGGUUUUUGGGGUUUGGGGAAAGUAUUAUGUUACGCCGUUCGGAUCUGCACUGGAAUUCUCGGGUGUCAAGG	0.919
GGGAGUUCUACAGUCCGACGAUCAAGUCCUGUGCUACACAUCGUAUGUACCGAAUCGGGGCCCCGGGCCCCGGGCCCCGGAAAGUAUUAUGUUACGCCGUUCGGAUCUGCACUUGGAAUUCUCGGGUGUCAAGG	-0.704
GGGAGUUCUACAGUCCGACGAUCAAGUCCUGUGCUACACAUCGUAUGUACCGAAUCGGAAAAAGGAAAAAGGGAAAAAGGAAAGUAUUAUGUUACGCCGUUCGGAUCUGCACUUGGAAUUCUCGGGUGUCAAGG	-0.703
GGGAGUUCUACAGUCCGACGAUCACCAUGCAGGUGGGCAUCUUUGGGAAGUGGGGCAAGGGGGGGAUAGGGAGGGGGGUAACACUUUGGGAACAGGUGGACCCAGGUCGUUUCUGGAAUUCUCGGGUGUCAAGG	0.47
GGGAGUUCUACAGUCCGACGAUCGCAGGAAGUAAAAACAAAUGGAAAUGCUUCGGAUAGUGGCAGGGGUGGGGGUUGCUAAGGAAAGGGUGGGAUGGGAGGGGGUAAAGAGUUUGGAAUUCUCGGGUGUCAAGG	0.0172
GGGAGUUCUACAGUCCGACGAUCAAGUCCUGUGCUACACAUCGUAUGUACCGAAUCGGAAAAAAAGGAGGUUUUUUUGGAAAGUAUUAUGUUACGCCGUUCGGAUCUGCACUUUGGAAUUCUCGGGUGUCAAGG	-1.01
